Measurements pooled from the literature.
A part holds a random share of what one study measured.
Sequence of UniProt P0C1S8 (whole entry, looked up): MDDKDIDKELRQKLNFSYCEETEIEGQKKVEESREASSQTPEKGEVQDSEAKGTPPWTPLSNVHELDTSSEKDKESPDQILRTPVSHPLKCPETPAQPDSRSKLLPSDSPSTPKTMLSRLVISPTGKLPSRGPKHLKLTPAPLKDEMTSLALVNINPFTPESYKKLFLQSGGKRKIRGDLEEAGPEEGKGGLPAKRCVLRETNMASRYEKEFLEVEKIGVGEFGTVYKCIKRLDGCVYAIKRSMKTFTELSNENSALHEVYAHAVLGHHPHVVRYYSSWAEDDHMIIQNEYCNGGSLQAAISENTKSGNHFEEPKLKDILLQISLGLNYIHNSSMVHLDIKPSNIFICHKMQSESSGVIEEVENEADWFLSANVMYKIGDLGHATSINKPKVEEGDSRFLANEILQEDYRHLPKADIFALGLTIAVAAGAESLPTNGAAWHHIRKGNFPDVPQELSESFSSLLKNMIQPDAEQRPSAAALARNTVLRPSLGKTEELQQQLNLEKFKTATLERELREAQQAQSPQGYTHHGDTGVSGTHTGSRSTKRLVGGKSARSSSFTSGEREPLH
Sequence of UniProt P22612 (whole entry, looked up): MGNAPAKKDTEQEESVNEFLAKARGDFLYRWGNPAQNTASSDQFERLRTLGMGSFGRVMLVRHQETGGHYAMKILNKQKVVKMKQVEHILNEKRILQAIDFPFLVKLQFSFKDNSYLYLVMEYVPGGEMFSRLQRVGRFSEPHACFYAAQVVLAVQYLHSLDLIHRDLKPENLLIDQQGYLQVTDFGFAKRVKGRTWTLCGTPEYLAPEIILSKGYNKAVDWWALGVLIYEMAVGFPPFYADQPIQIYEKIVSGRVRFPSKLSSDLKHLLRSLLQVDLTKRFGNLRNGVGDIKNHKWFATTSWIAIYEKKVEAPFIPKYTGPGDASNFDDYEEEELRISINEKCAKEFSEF
Sequence of UniProt P49137 (whole entry, looked up): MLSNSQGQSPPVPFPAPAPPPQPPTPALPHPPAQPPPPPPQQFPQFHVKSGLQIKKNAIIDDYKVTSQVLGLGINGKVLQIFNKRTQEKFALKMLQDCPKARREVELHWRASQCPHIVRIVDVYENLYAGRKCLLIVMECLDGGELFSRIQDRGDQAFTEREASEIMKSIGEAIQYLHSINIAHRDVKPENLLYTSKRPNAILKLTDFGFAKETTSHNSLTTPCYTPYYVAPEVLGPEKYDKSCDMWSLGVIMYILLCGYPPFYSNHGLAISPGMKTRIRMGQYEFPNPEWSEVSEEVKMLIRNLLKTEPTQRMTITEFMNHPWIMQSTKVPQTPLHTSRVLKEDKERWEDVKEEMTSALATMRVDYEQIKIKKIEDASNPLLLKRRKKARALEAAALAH
Sequence of UniProt Q96GD4 (whole entry, looked up): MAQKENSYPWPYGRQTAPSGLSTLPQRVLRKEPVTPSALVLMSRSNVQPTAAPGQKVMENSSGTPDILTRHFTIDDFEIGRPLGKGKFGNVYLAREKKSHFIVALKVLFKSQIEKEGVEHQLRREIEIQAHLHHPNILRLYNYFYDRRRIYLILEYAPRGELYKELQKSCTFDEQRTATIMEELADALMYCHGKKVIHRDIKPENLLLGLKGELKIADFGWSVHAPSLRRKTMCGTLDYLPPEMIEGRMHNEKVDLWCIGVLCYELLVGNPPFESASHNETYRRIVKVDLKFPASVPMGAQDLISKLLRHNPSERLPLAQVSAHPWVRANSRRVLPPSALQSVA
Sequence of UniProt Q9UEE5 (whole entry, looked up): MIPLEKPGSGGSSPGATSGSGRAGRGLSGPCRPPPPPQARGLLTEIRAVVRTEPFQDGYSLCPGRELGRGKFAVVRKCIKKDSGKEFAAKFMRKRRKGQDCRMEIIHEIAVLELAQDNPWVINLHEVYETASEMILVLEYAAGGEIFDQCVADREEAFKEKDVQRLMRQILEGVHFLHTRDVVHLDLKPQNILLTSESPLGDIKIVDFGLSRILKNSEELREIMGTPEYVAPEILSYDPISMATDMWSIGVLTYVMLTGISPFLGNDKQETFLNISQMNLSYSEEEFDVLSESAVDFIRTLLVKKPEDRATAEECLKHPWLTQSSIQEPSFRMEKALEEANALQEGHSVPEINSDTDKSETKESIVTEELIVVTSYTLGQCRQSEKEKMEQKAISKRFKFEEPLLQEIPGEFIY
Sequence of UniProt Q16644 (whole entry, looked up): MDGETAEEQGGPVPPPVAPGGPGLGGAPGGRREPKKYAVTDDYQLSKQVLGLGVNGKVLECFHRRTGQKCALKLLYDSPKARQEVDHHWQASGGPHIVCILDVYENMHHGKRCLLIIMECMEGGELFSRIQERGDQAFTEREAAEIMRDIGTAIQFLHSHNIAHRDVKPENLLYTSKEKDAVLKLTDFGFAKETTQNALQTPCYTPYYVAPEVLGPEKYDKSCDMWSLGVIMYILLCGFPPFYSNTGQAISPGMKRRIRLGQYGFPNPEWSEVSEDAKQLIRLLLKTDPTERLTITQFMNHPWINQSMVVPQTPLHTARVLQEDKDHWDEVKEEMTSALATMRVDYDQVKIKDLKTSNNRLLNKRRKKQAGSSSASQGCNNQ
Sequence of UniProt P52564 (whole entry, looked up): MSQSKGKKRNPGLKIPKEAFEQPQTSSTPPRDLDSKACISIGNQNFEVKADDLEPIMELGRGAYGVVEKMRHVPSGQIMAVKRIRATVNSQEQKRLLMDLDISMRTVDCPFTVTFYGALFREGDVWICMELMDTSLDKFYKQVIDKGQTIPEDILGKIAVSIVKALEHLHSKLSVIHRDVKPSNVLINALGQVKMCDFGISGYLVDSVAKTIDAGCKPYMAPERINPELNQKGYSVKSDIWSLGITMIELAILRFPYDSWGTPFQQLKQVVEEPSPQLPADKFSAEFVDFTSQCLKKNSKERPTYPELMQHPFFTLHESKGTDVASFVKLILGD
Sequence of UniProt P54764 (whole entry, looked up): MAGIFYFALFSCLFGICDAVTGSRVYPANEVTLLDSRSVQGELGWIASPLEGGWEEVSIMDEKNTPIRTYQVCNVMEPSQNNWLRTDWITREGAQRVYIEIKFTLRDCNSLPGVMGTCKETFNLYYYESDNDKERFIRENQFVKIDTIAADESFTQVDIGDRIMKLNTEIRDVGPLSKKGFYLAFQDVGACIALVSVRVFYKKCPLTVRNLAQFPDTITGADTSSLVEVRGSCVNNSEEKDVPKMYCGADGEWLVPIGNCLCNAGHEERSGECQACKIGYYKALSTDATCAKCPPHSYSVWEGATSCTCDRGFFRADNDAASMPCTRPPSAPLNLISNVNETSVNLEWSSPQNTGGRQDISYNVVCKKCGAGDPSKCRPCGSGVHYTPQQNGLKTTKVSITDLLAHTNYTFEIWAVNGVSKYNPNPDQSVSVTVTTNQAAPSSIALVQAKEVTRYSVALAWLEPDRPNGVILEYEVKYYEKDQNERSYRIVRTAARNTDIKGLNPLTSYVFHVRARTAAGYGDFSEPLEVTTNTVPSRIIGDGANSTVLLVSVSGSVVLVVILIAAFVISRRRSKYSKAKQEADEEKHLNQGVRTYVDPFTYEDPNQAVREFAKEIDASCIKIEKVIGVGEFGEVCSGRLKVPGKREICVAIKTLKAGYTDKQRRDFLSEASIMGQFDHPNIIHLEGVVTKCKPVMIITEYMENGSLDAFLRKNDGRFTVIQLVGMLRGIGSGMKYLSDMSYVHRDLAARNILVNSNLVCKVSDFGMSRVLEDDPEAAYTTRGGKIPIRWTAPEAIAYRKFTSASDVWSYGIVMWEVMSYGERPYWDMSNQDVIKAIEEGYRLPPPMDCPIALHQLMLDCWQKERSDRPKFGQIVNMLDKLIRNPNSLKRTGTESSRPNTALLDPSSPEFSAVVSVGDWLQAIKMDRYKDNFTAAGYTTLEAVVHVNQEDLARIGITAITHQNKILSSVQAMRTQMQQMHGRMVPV
Sequence of UniProt Q00534 (whole entry, looked up): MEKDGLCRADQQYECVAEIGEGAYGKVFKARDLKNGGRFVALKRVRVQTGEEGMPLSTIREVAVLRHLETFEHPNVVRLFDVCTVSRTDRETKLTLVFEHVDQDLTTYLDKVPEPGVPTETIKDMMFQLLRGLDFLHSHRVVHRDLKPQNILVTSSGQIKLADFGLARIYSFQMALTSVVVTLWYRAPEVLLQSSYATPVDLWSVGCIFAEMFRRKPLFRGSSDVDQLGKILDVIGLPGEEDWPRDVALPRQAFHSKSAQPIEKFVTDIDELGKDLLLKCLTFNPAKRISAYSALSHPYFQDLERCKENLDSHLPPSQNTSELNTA
Sequence of UniProt P19525 (whole entry, looked up): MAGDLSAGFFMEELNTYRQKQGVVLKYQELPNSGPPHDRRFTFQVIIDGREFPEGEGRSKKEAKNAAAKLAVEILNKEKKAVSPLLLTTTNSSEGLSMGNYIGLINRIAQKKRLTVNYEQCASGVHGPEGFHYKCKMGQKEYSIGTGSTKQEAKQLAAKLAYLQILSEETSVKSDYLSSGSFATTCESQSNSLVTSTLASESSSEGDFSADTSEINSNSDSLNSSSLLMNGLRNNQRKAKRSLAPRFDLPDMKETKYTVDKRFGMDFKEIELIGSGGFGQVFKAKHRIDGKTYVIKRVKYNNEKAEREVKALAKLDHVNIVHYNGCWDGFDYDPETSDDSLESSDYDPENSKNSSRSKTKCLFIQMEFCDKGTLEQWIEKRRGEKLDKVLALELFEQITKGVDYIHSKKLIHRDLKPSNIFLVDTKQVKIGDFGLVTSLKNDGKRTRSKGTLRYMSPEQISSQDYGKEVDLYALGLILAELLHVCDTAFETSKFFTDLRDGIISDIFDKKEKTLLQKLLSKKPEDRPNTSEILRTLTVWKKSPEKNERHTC

Study 1 — method: protein-binding microarray; form: double-stranded DNA, one strand shown; sample: in vitro; concentration: not given; reading: higher = stronger binding; endpoint: E-score
Target: Hepatocyte nuclear factor 3-beta, forkhead domain (FOXA2, Homo sapiens, UniProt Q9Y261, residues 142-269)
Notes: k-mer, scored over probes, only values ≥0.25
Residues (chain): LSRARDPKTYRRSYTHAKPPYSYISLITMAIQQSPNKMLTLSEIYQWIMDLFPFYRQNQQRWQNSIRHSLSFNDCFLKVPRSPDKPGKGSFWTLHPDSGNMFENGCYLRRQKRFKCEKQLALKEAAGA
Oligonucleotide = ATACGAAA; result = 0.266
Oligonucleotide = CTATACCA; result = 0.27
Oligonucleotide = CATGTATA; result = 0.376
Oligonucleotide = ATCATACG; result = 0.266
Oligonucleotide = GTCAACAC; result = 0.352
Oligonucleotide = GTATTAGA; result = 0.275
Oligonucleotide = ATTTGTAC; result = 0.287
Oligonucleotide = CATAAAAA; result = 0.261

Study 2 — method: Phase 2a trial; species: human, idiopathic pulmonary fibrosis; endpoint: patients with adverse event
Compound: CC(C)n1cnc(-c2ccc(F)cc2)c1-c1ncc(C(=O)Nc2ccc(N3CCN(C)CC3)cc2)[nH]1
measured = hypocalcaemia; dose = all compound arms total; notes = grade 2; result = 0%
measured = haemoptysis; dose = 30 mg once daily; notes = grade 3; result = 0%
measured = hypertriglyceridaemia; dose = 60 mg once daily; notes = grade 4; result = 0%
measured = blood urea increased; dose = 30 mg once daily; notes = grade 2; result = 0%

Study 3 — effect on: enzyme activity; mode: inhibitor; concentration: 0.5 µM; relative to: control; endpoint: remaining activity
SMILES: O=C1Nc2ccc(Br)cc2/C1=C/c1cc2c([nH]1)CCCC2
target = Cyclin-dependent kinase 6, with cyclin D3 (CDK6, Homo sapiens, UniProt Q00534); result = 85.8%
target = PRKACG (Homo sapiens, UniProt P22612); result = 98.1%
target = WNK3 (Homo sapiens, UniProt Q9BYP7); result = 93.8%
target = MAPKAPK3 (Homo sapiens, UniProt Q16644); result = 95.1%
target = SRMS (Homo sapiens, UniProt Q9H3Y6); result = 104%
target = STK17A (Homo sapiens, UniProt Q9UEE5); result = 72.9%
target = EPHA4 (Homo sapiens, UniProt P54764); result = 94.8%

Study 4 — method: competition with immobilised ligand; concentration: 1 µM; endpoint: remaining binding
Structure (SMILES): CC1=C(C#N)C(c2ccc3c(c2)c(NC(=O)c2ccccc2C)nn3C)C(C#N)=C(C)N1
target = WEE2 (Homo sapiens, UniProt P0C1S8); effect on = cell-free assay; result = 100%
target = FLT3 (Homo sapiens, UniProt P36888, ITD); effect on = cell-free assay; result = 96%
target = MAP2K6 (Homo sapiens, UniProt P52564); effect on = cell-free assay; result = 95%
target = ABL2 (Homo sapiens, UniProt P42684); effect on = cell-free assay; result = 99%
target = EPHB2 (Homo sapiens, UniProt P29323); effect on = cell-free assay; result = 86%
target = EPHA1 (Homo sapiens, UniProt P21709); effect on = cell-free assay; result = 88%
target = PRKG2 (Homo sapiens, UniProt Q13237); effect on = cell-free assay; result = 72%
target = RIOK3 (Homo sapiens, UniProt O14730); effect on = cell-free assay; result = 87%
target = EGFR (Homo sapiens, UniProt P00533, A750P/del747-749); effect on = cell-free assay; result = 93%
target = EIF2AK2 (Homo sapiens, UniProt P19525); effect on = cell-free assay; result = 100%
target = TNNI3K (Homo sapiens, UniProt Q59H18); effect on = cell-free assay; result = 96%
target = Tyrosine-protein kinase ABL1, phosphorylated (ABL1, Homo sapiens, UniProt P00519, Y253F); effect on = cell-free assay; result = 82%
target = Aurora kinase B (AURKB, Homo sapiens, UniProt Q96GD4); effect on = cell-free assay; result = 66%
target = MAPKAPK2 (Homo sapiens, UniProt P49137); effect on = cell-free assay; result = 84%
target = CDK11A (Homo sapiens, UniProt Q9UQ88); effect on = binding; result = 100%
target = DAPK3 (Homo sapiens, UniProt O43293); effect on = cell-free assay; result = 88%
target = FLT3 (Homo sapiens, UniProt P36888, D835Y); effect on = cell-free assay; result = 82%

Excerpt of the above (study 1):
Oligonucleotide = ATCATACG; result = 0.266
Oligonucleotide = GTCAACAC; result = 0.352
Oligonucleotide = GTATTAGA; result = 0.275
Oligonucleotide = ATTTGTAC; result = 0.287
Oligonucleotide = CATAAAAA; result = 0.261
